Assay results from different studies.
Lines come from different studies, so protocols differ.

Molecule	assay	test system	setting	quantity	value
Teicoplanin	HPLC-UV	human patients, serum ultrafiltrate	dose not given	median trough free concentration	1.53 µg/mL
C=CC(=O)Nc1cc(Nc2nccc(-c3cn(C)c4ccccc34)n2)c(OC)cc1N(C)CCN(C)C	UHPLC-MS/MS	human, NSCLC patients, plasma	oral, 80 mg daily, steady state, at least 14 d treatment	median trough concentration	205 ng/mL
O=C(O)c1cc(O)ccc1O		human, fasted baseline, cerebrospinal fluid		median concentration	35.3 nM
C[C@H](N)C(=O)N1C[C@H](CCCB(O)O)[C@](N)(C(=O)O)C1		human patients, plasma	oral, 100 mg single dose, cycle 1 day 1	median tmax	4 h
C=C[C@@H]1C[C@]1(NC(=O)[C@@H]1C[C@@H]2CN1C(=O)[C@H](C(C)(C)C)NC(=O)O[C@@H]1C[C@H]1CCCCCc1nc3ccc(OC)cc3nc1O2)C(=O)NS(=O)(=O)C1CC1		healthy adult humans, plasma	oral, 100 mg, fixed-dose combination with elbasvir 50 mg, fasted	median tmax	1.5 h
CC(C)(O)CNc1nc(Nc2ccnc(C(F)(F)F)c2)nc(-c2cccc(C(F)(F)F)n2)n1		human patients	oral, 100 mg once daily, cycle 1 days 14 and 21, together with: induction chemotherapy	median Tmax	4.18 h
CC[C@@H]1C(=O)N(C)c2cnc(Nc3ccc(C(=O)N[C@H]4CC[C@H](N5CCN(CC6CC6)CC5)CC4)cc3OC)nc2N1C(C)C		human, plasma	intravenous infusion, 350 mg over 2 h, first infusion	median Tmax	1 h
COc1cc(/C=C/C(=O)OC2C(O)CC(O)(C(=O)O)CC2O)ccc1O (stereo not drawn)		human, fasted baseline, cerebrospinal fluid		median concentration	1.8 nM
CCN(CC)CCNC(=O)c1c(C)[nH]c(/C=C2\C(=O)Nc3ccc(F)cc32)c1C		human, plasma	oral, 15 mg/m2, day 7	median trough plasma concentration	27.8 ng/mL
O=c1ccc2ccc(O)c(O)c2o1		human, fasted baseline, cerebrospinal fluid		median concentration	19.6 nM
Cn1c(-c2ccc(C(N)=O)cc2F)nnc1C(C)(C)Oc1c(F)cc(Cl)cc1F		young non-Japanese humans, plasma	oral, 2 mg once daily, last day of 14 days	median Cmax	18.1 ng/mL
O=c1c(O)c(-c2ccc(O)c(OS(=O)(=O)O)c2)oc2cc(O)cc(O)c12		human, fasted baseline, cerebrospinal fluid		median concentration	18.1 nM
N#Cc1ccnc(N2C(=O)CC[C@H]2C(=O)N(c2cncc(F)c2)[C@H](C(=O)NC2CC(F)(F)C2)c2ccccc2Cl)c1		human patients	oral, single and multiple doses, together with: induction and consolidation chemotherapy	median Tmax	~4 h
Cn1c(=O)c2[nH]cnc2n(C)c1=O		human, fasted baseline, cerebrospinal fluid		median concentration	43.9 nM
CO[C@H]1C[C@@H]2CC[C@@H](C)[C@@](O)(O2)C(=O)C(=O)N2CCCC[C@H]2C(=O)O[C@H]([C@H](C)C[C@@H]2CC[C@@H](OC(=O)C(C)(CO)CO)[C@H](OC)C2)CC(=O)[C@H](C)/C=C(\C)[C@@H](O)[C@@H](OC)C(=O)[C@H](C)C[C@H](C)/C=C/C=C/C=C/1C		human, whole blood	intravenous, 35 mg/m2, cycle 1, together with: valproic acid	median Cmax	790 ng/mL

For quick reference, copied from above:
Molecule	assay	test system	setting	quantity	value
CC(C)(O)CNc1nc(Nc2ccnc(C(F)(F)F)c2)nc(-c2cccc(C(F)(F)F)n2)n1		human patients	oral, 100 mg once daily, cycle 1 days 14 and 21, together with: induction chemotherapy	median Tmax	4.18 h
